Measured values of several laboratories.
Parts stem from different laboratories: compare values within a part only. Values joined by “and” are separate records of one study, mostly repeats; a detail may differ.
Sequence of UniProt Q99640 (whole entry, looked up): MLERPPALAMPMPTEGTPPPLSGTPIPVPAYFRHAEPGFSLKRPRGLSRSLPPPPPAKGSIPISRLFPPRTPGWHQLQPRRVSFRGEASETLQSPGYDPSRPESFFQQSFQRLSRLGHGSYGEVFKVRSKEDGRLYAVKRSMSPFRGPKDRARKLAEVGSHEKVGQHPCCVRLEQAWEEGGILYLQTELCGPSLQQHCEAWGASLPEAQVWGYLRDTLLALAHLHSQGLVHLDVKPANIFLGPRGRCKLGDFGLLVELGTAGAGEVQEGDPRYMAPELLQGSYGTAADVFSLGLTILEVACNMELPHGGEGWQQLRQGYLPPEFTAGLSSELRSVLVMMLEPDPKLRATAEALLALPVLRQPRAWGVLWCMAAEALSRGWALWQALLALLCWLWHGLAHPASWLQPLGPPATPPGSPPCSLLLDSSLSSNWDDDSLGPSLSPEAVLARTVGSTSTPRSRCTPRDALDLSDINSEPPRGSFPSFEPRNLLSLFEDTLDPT
Sequence of UniProt P53779 (whole entry, looked up): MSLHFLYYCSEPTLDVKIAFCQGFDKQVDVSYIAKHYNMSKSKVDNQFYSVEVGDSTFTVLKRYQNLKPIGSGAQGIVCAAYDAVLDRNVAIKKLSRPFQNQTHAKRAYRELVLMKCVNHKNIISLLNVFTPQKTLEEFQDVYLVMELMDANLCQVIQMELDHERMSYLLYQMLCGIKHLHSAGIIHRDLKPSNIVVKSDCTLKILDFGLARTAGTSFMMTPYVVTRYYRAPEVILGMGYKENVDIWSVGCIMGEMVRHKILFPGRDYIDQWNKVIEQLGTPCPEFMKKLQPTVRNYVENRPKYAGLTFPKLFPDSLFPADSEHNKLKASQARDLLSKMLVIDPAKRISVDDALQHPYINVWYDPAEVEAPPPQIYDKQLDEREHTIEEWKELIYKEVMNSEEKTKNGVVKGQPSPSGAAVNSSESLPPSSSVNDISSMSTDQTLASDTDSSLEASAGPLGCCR
Sequence of UniProt P29376 (whole entry, looked up): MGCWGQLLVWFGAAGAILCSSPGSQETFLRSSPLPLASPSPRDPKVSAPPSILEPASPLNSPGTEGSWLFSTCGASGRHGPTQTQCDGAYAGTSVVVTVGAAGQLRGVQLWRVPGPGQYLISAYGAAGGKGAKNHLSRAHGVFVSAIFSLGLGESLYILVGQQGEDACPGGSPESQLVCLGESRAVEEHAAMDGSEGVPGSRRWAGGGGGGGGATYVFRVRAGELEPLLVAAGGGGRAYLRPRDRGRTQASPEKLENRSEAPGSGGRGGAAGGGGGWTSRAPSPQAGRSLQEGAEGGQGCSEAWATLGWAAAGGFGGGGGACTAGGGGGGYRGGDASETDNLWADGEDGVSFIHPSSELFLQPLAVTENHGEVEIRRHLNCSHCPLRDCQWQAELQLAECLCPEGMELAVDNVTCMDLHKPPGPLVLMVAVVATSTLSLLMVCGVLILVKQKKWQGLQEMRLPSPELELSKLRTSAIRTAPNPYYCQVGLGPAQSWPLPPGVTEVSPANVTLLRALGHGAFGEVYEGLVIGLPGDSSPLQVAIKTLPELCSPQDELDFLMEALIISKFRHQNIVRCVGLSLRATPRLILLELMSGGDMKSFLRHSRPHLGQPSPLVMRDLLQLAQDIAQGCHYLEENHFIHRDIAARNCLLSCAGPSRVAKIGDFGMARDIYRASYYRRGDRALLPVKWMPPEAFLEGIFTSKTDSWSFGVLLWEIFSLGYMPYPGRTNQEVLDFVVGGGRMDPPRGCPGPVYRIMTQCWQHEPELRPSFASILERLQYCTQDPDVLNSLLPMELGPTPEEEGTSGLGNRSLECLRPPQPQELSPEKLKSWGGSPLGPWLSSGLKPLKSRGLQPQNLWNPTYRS

Series 1 — read-out: thermal unfolding; method: differential scanning fluorimetry; concentration: 5.5 µM; reading: higher = more unfolded; quantity: SYPRO Orange fluorescence
SMILES: C[C@@H]1CN(c2ccc(-c3cc(C(=O)NCCOCCOCCOCCOCCNC(=O)Cn4cc(-c5[nH]cc(C(=O)N[C@@H](CC(N)=O)c6ccc(F)c(Cl)c6)c5-c5ccc(Cl)cc5F)cn4)ccc3F)cc2NC(=O)c2c[nH]c(=O)cc2C(F)(F)F)C[C@H](C)N1C
WDR5: WD repeat-containing protein 5 (WDR5, Homo sapiens, UniProt P61964)
DCAF1: DDB1- and CUL4-associated factor 1 (DCAF1, Homo sapiens, UniProt Q9Y4B6)
Sequence of UniProt Q9Y4B6 (whole entry, looked up): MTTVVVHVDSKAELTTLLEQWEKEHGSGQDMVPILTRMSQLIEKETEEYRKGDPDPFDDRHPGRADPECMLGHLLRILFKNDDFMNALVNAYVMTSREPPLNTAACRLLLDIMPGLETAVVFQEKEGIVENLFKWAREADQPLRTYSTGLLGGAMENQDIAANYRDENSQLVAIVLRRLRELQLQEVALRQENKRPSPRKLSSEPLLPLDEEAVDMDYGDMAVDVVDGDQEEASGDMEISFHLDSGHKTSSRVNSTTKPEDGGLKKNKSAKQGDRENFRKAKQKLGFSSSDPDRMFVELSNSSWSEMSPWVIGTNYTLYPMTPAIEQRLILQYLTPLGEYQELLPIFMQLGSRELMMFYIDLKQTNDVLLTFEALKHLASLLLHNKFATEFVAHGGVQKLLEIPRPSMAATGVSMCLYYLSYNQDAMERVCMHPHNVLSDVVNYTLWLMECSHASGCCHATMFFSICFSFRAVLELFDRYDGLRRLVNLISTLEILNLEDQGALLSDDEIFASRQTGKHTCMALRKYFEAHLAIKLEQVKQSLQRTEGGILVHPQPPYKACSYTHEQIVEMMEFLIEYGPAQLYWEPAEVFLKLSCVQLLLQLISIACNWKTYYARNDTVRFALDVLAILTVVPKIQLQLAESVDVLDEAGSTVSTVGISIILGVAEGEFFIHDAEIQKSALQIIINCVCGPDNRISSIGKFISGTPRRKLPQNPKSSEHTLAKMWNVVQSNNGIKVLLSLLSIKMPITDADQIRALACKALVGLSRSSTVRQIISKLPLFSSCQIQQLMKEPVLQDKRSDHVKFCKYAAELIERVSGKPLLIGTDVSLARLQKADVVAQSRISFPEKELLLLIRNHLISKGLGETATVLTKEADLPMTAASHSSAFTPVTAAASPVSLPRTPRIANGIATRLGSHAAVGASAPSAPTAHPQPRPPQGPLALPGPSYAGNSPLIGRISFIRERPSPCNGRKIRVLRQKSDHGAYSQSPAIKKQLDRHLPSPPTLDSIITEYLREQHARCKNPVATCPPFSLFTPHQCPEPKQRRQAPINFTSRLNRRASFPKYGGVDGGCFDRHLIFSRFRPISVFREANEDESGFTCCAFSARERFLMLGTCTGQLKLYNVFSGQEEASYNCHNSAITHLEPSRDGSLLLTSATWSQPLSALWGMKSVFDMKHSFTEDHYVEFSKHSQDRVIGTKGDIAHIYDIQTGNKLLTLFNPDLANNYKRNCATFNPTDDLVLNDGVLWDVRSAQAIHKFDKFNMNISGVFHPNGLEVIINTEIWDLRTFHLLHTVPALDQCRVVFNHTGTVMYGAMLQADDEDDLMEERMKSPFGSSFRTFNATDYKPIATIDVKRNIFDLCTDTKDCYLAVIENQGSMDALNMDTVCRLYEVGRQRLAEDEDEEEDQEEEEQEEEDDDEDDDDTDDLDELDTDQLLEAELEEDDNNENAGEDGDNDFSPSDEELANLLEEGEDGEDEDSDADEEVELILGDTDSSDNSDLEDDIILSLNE
WDR5; 82.61 °C: 32000 a.u.
WDR5; 60.01 °C: 10400 a.u.
WDR5; 25 °C: 14800 a.u.
DCAF1; 59.01 °C: 33100 a.u.
DCAF1; 66.01 °C: 56600 a.u.
WDR5; 42.6 °C: 14300 a.u.
DCAF1; 26 °C: 7580 a.u.

Series 2 — read-out: cell growth or viability; method: ATP luminescence; time: 6 days; quantity: viability
SMILES: Cc1ncsc1-c1ccc(C(CO)NC(=O)C2CC(O)CN2C(=O)C(C(C)C)n2cc(-c3ccc(COc4c(-c5c(C)c(F)cc6[nH]ncc56)c(C5CC5)cc5c(N6CC7CC6CN7)nc(OC6CCOCC6)nc45)cc3)nn2)cc1 (centres unmarked)
ASPC1; 10 µM: 3.7% and 3.8% and 5.08% and 15.1%
HT-29; 300 pM: 99.1% and 116% and 101% and 100%
HCT-116; 0.3 µM: 71.8% and 66.5% and 65.4% and 64.1%
BXPC-3; 1 nM: 102% and 95% and 108% and 91.3%
BXPC-3; 300 pM: 98.4% and 85% and 77.3% and 85.8%
HPAC; 10 µM: 2.66% and 1.83% and 2.53% and 6.26%
NCI-H1299; 0.1 µM: 111% and 92.8% and 119% and 107%

Series 3 — quantity: mRNA level ratio
Structure (SMILES): COCC1CC2C(CCC3C(O)CCC32)c2ccc(O)cc21 (centres unmarked)
PANC-1; microarray, measured: PIF1; 100 µM; reference: untreated: 1.44
PANC-1; DNA microarray, measured: ACTB; 100 µM; reference: untreated cells: 0.512 and 0.515 and 0.513 and 0.506
SK-OV-3; microarray, measured: CDC25B; 100 µM; reference: untreated: 1.13
PANC-1; DNA microarray, measured: C6; 100 µM; reference: untreated cells: 97.3
A549; DNA microarray, measured: ACTB; 100 µM; reference: untreated cells: 0.808 and 0.823 and 0.811 and 0.825 and 0.849
A549; DNA microarray, measured: GAPDH; 25 µM; reference: untreated cells: 0.814 and 0.823 and 0.816
PANC-1; DNA microarray, measured: TMEM108; 25 µM; reference: untreated cells: 2.02
PANC-1; microarray, measured: SPC25; 25 µM; reference: untreated: 1.35
A549; microarray, measured: MCM6; 25 µM; reference: untreated: 1.05
A549; microarray, measured: RFC3; 100 µM; reference: untreated: 0.967
SK-OV-3; microarray, measured: AURKA; 25 µM; reference: untreated: 1.01
PANC-1; microarray, measured: AURKA; 25 µM; reference: untreated: 1.51
A549; microarray, measured: CCL11; 100 µM; reference: untreated: 268
PANC-1; microarray, measured: CDC25B; 25 µM; reference: untreated: 0.94
A549; microarray, measured: SPC25; 25 µM; reference: untreated: 0.841

Series 4 — read-out: kinase activity; quantity: inhibition
Structure (SMILES): CNc1ncc2cc(-c3cc(OC)cc(OC)c3Cl)c(=O)n(CCc3ccc(NC(=O)C(C#N)=CC(C)(C)N4CCOCC4)cc3)c2n1
Leukocyte tyrosine kinase receptor (LTK, Homo sapiens, UniProt P29376); 0.1 µM: -2%
BDNF/NT-3 growth factors receptor (NTRK2, Homo sapiens, UniProt Q16620); 1 µM: 4%
Mitogen-activated protein kinase 10 (MAPK10, Homo sapiens, UniProt P53779); 0.1 µM: 7%
Tyrosine-protein kinase receptor TYRO3 (TYRO3, Homo sapiens, UniProt Q06418); 0.1 µM: -1%
Dual specificity tyrosine-phosphorylation-regulated kinase 1B (DYRK1B, Homo sapiens, UniProt Q9Y463); 1 µM: 8%
Serine/threonine-protein kinase D2 (PRKD2, Homo sapiens, UniProt Q9BZL6); 1 µM: 3%
Serine/threonine-protein kinase MRCK alpha (CDC42BPA, Homo sapiens, UniProt Q5VT25); 0.1 µM: -4%
Casein kinase I isoform gamma-1 (CSNK1G1, Homo sapiens, UniProt Q9HCP0); 1 µM: 2%
Serine/threonine-protein kinase PAK 5 (PAK5, Homo sapiens, UniProt Q9P286); 1 µM: 4%
Serine/threonine-protein kinase D1 (PRKD1, Homo sapiens, UniProt Q15139); 0.1 µM: 0%
Serine/threonine-protein kinase PAK 6 (PAK6, Homo sapiens, UniProt Q9NQU5); 0.1 µM: 2%
Homeodomain-interacting protein kinase 1 (HIPK1, Homo sapiens, UniProt Q86Z02); 1 µM: -1%
Tyrosine-protein kinase ITK/TSK (ITK, Homo sapiens, UniProt Q08881); 1 µM: 0%
Tyrosine-protein kinase Tec (TEC, Homo sapiens, UniProt P42680); 0.1 µM: 0%

Series 5 — quantity: inhibition
SMILES: C=C(CN)COc1cccc(Cn2c(=S)[nH]c(=O)c3[nH]cnc32)c1
AOC3: Amine oxidase [copper-containing] 3 (AOC3, Homo sapiens, UniProt Q16853)
Sequence of UniProt Q16853 (whole entry, looked up): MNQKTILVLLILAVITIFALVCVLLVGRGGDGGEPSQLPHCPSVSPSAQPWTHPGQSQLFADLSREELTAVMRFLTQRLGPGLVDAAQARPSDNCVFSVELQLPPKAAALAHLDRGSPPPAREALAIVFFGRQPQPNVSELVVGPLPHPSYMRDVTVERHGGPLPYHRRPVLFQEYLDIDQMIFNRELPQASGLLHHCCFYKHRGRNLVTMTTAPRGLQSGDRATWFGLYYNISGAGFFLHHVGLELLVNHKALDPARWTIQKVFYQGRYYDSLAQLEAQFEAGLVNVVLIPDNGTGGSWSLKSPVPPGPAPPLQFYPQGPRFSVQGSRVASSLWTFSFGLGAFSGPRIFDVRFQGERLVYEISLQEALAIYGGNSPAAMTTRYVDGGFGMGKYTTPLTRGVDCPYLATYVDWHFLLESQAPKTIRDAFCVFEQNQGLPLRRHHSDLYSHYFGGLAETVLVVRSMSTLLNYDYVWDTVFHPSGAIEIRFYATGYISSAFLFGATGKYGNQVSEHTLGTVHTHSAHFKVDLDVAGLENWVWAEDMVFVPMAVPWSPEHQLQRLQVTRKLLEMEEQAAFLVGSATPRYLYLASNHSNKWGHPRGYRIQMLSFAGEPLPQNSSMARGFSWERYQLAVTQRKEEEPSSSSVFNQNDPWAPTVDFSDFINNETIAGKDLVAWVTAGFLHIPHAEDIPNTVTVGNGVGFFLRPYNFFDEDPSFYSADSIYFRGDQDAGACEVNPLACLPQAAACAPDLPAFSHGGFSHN
MPO: Myeloperoxidase (MPO, Homo sapiens, UniProt P05164)
Sequence of UniProt P05164 (whole entry, looked up): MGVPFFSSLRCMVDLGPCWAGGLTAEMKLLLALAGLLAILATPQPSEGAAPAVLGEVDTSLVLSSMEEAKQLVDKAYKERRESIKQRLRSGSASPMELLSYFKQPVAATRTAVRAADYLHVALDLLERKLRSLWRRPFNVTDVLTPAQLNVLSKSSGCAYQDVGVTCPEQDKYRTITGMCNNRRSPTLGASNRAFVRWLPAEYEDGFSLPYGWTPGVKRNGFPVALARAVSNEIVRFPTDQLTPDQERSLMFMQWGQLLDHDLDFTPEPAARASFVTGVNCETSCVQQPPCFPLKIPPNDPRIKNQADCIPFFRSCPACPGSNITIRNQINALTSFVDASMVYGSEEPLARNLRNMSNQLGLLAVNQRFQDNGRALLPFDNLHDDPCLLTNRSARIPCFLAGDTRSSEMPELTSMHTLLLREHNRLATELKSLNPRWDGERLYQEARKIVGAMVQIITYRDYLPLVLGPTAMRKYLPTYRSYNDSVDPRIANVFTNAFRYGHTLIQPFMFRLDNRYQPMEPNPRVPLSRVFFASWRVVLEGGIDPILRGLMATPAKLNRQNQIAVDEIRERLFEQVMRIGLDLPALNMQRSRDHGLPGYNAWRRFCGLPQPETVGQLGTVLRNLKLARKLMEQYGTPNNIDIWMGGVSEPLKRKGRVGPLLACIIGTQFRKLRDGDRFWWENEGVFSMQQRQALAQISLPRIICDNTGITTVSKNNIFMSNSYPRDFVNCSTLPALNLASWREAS
AOC3; enzyme activity, Amplex Red H2O2 production; 0.1235 µM, mean value: 10.7%
MPO; enzyme activity; 30 µM: 100%
AOC3; enzyme activity, Amplex Red H2O2 production; 0.0412 µM, mean value: 10.2%
AOC3; enzyme activity, Amplex Red H2O2 production; 0.0046 µM, mean value: 1.71%
MPO; enzyme activity; 0.0137 µM: 51.3% and 40.5%
AOC3; enzyme activity, Amplex Red H2O2 production; 0.0015 µM, mean value: 4.31%
MPO; enzyme activity, inhibitor, fluorescence; 10 µM: 100%
AOC3; enzyme activity, Amplex Red H2O2 production; 30 µM, mean value: 93.6%
MPO; enzyme activity, inhibitor, fluorescence; 0.3333 µM: 97.1%
MPO; enzyme activity, inhibitor, fluorescence; 4.1 nM: 25.4%
AOC3; H2O2 production, inhibitor, Amplex Red; 0.0015 µM: 11.6 % Inhibition and -2.93 % Inhibition
AOC3; enzyme activity, Amplex Red H2O2 production; 1.111 µM, mean value: 42%
MPO; enzyme activity; 0.1235 µM: 93.6% and 94.8%

Series 6 — cell line: U-87 MG; concentration: concentration not given; reference: DMSO; quantity: log2 fold change
Structure (SMILES): CCN1/C(=C/C=C2\CCCC(/C=C/C3=[N+](CC)c4ccccc4C3(C)C)=C2NCCCCCCCCN2CCC(Nc3nc4ccccc4n3Cc3ccc(F)cc3)CC2)C(C)(C)c2ccccc21
measured: LOXL1 mRNA: -2.79
measured: SYNE1 mRNA: 1.36
measured: HAUS8 mRNA: -1.2
measured: METTL7B mRNA: -3.71
measured: GDF5 mRNA: -3.83
measured: UQCC3 mRNA: -0.816
measured: CGB3 mRNA: -2.78
measured: AURKA mRNA: -1.81
measured: ORC1 mRNA: -1.75
measured: LPAR5 mRNA: -3.54
measured: H2AZ1 mRNA: -1.22

Single results of other studies
Cc1ccc(O)c(C)c1-c1cnc2[nH]c(-c3cnc(N4CCC(CN5CCN(c6cc7c(cc6F)n(C6CCC(=O)NC6=O)c(=O)n7C)CC5)CC4)nc3)cc2c1C#N (centres unmarked)  AUC(0-t) (female CD-1 mouse, plasma; oral, 20 mg/kg): 2130 ng·h/mL
Cc1ccc(O)c(C)c1-c1cnc2[nH]c(-c3cnc(N4CCC(CCN5CCN(c6ccc7c(c6)C(=O)N(C6CCC(=O)NC6=O)C7=O)CC5)CC4)nc3)cc2c1C#N (racemic)  inhibition (Membrane-associated tyrosine- and threonine-specific cdc2-inhibitory kinase (PKMYT1, Homo sapiens, UniProt Q99640); binding, HTRF; 37.04 nM): 93.5% and 95.4%
Cc1ccc(O)c(C)c1-c1cnc2[nH]c(-c3cnc(N4CCC(CN5CCN(c6ccc(NC7CCC(=O)NC7=O)cc6F)CC5)CC4)nc3)cc2c1C#N (centres unmarked)  bioavailability (female CD-1 mouse, plasma; oral, 60 mg/kg): 93.9%
Cc1ccc(O)c(C)c1-c1cnc2[nH]c(-c3cnc(N4CCC5(CC4)CC(N4CCN(c6ccc(N[C@H]7CCC(=O)NC7=O)cc6F)CC4)CO5)nc3)cc2c1C#N (single isomer, unassigned)  selectivity ratio (HCT-116; measured: phospho-MEK; reference: pMEK EC50 over pCDK1 IC50): 16 fold

Repeated from above (series 5):
MPO; enzyme activity, inhibitor, fluorescence; 10 µM: 100%
MPO; enzyme activity; 0.1235 µM: 93.6% and 94.8%
AOC3; enzyme activity, Amplex Red H2O2 production; 0.0015 µM, mean value: 4.31%
AOC3; enzyme activity, Amplex Red H2O2 production; 0.0046 µM, mean value: 1.71%
AOC3; H2O2 production, inhibitor, Amplex Red; 0.0015 µM: 11.6 % Inhibition and -2.93 % Inhibition
